Experimental data collected from several papers.
Target: Mitogen-activated protein kinase kinase kinase 9 (MAP3K9, Homo sapiens, UniProt P80192)
Sequence of UniProt P80192 (whole entry, looked up): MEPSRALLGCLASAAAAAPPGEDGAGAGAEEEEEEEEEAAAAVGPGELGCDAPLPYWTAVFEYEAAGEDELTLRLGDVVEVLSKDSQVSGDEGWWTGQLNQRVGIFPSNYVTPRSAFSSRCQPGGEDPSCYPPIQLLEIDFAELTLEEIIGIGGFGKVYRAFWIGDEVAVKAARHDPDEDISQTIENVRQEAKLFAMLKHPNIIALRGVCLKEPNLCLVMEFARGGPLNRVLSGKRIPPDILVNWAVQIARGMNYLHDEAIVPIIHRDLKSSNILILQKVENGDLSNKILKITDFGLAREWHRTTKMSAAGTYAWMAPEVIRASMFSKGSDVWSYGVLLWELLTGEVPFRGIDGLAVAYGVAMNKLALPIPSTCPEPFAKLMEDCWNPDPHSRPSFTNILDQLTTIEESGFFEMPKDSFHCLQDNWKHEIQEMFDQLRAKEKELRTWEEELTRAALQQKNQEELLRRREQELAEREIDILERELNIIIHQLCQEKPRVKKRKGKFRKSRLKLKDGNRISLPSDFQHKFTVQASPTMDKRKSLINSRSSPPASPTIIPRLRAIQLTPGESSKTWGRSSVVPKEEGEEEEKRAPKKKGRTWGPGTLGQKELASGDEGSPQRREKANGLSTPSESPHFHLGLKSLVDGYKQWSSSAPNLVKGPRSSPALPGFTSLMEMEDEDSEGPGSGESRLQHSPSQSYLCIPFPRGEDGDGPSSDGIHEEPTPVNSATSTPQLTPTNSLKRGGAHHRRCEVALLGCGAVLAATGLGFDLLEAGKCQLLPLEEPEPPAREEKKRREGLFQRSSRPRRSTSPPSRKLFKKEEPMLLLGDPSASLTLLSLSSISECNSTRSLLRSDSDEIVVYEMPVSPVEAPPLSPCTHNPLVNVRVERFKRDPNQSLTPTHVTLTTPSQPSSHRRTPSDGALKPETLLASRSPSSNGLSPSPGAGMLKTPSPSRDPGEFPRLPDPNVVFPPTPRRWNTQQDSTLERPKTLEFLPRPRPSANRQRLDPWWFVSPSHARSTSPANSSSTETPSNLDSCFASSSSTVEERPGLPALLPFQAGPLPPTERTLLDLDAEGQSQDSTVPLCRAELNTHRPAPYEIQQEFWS

Cc1cnc2nc1Nc1cccc(c1)COC/C=C/COCc1cc(ccc1OCCN1CCOCC1)N2 — remaining binding (binding, competition with immobilised ligand; 0.1 µM): 93%
C=CC(=O)Nc1cc(-c2nn(C3CCN(CCNC(=O)[C@H](C)CCC45CC6CC(CC(C6)C4)C5)CC3)c3ncnc(N)c23)ccc1Oc1ccccc1 — inhibition (inhibitor, KiNativ profiling; biochemical; 2 µM): 22.9%
COc1ccc(O)cc1-c1c[nH]c2ncc(-c3cncc(C(=O)N(C)C)c3)cc12 — inhibition (binding, competition with immobilised ligand; 0.2 µM): 29.5%
C=CC(=O)N1CCCC(n2c(=O)c3ncccc3n(Cc3ccc(Oc4ccccc4)cc3)c2=O)C1 (stereo not shown) — remaining binding (cell-free assay, competition with immobilised ligand; 1 µM): 83%
Nc1ncc2c(n1)-c1c([nH]c3ccc(C4=CCOCC4)cc13)CCC2 — remaining binding (binding, competition with immobilised ligand; 1 µM): 100%
C=CC(=O)N1CCc2ccc(-n3c(=O)ccc4cnc5ccc(-c6cnn(C)c6)cc5c43)cc21 — remaining binding (KINOMEscan; 1 µM; relative to: DMSO control): 100%
CN1CCN(Cc2ccc(NC(=O)c3cccc(C#Cc4cnc(N)c5ncccc45)c3)cc2C(F)(F)F)CC1 — remaining binding (cell-free assay, competition with immobilised ligand; 0.5 µM): 40%
O=C=[N][Ru-4]123([n]4c5ccc(O)cc5c5c6c(c7cc(F)c[n+]1c7c54)C(=O)NC6=O)[S+]1CC[S+]2CC[S+]3CC1 (stereo not shown) — remaining activity (enzyme activity; 100 nM, human enzyme, with: 10 µM ATP; relative to: untreated): 86%
NC(=O)[C@@H](O)C[C@H]1CCc2sc3ncnc(O[C@H]4CC[C@H](N5CCOCC5)CC4)c3c21 — inhibition (enzyme activity, inhibitor; 10 µM): 13%
CNC(=O)C1CCN(c2cc(C)c(F)cc2NC(=O)c2ccc(-c3cc(O)ccc3C)c(C)c2)CC1 — remaining binding (binding, competition with immobilised ligand; 1 µM): 90%
COc1ccc(NC(=O)Nc2ccc3c(c2)C(=O)N(C(C)CO)CC(C)C(CN(C)Cc2ccc4c(c2)OCO4)O3)cc1 (stereo not shown) — remaining binding (binding, competition with immobilised ligand; 10 µM): 91%
COc1c(OCCCN2CCOCC2)ccc2c1N=C(NC(=O)c1cnc(N)nc1)N1CCN=C21 — remaining activity (kinase activity, inhibitor; 1 µM; relative to: untreated control): 82%
O=C(O)CCC(=O)c1cccc(NS(=O)(=O)c2c[nH]c3ncccc23)c1 — remaining activity (kinase activity, radiometric; 10 µM): 96%
C=C1CCCCCCCCCC(CO)C1=O (stereo not shown) — remaining binding (cell-free assay, competition with immobilised ligand; 10 µM): 100%
CCN1CCN(Cc2ccc(C(=O)Nc3ccc(C)c(NCc4cnc5[nH]ccc5c4OC)c3)cc2C(F)(F)F)CC1 — remaining binding (binding, competition with immobilised ligand; 1 µM): 100%
Cc1ccc(-c2c(/C=C(\C#N)C(=O)NC(C)C)n(CCCO)c3ncnc(N)c23)cc1 — remaining binding (cell-free assay, competition with immobilised ligand; 1 µM): 100%
